{"data": "Measured values from different studies", "note": "Every numbered part comes from another study and shows a few of its results, in no order."}
{"data": "Study 1", "target": "RNA binding protein fox-1 homolog 2, RRM domain, GST-SBP tag (RBFOX2, Homo sapiens, UniProt O43251-10, residues 100-194)", "method": "RNA Bind-n-Seq", "form": "RNA", "matrix": "in vitro", "tested at": "365 nM", "notes": "natural RNA segment, single round, ends assumed", "baseline": "no-protein control", "direction": "higher = stronger binding", "shared flanks, not repeated": "GGGAGUUCUACAGUCCGACGAUC … UGGAAUUCUCGGGUGCCAA", "Residues (chain)": "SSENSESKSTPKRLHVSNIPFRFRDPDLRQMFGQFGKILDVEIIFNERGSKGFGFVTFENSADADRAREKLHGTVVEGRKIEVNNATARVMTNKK"}
{"Oligonucleotide": "GGCCCUGUGUGAAGUAUUUCGAAUCUCCUCCUUGCUCUGAAACUUCAGCGAUUCCAUUGUGAUAAGCGCACAAACAGCACUGUCUGUCGGUAAUCGGUACUACUUUAUUA", "RBNS enrichment (R)": 0.339}
{"Oligonucleotide": "UUGCACUAGCCACACAAAAUGCUCAGUCACCAUCCCCCGGGCACCGAGGGUUAAGCUGGUUUAGCAGGUCAUUGCUCAGCUUUGCUUGUCUCCCUGGGCAAGGGAAGGGG", "RBNS enrichment (R)": 0.26}
{"Oligonucleotide": "UGUUUCUUGCCUAGCAAACGAAGCUUUGCCCGCACAGCCUUGACUCGCGGCCCCAGGGCGGAGCCCAGCUGCGGGAGCUGCCGCUGCUCAGCCAGUGUCGGGAAGAGUUG", "RBNS enrichment (R)": 0.228}
{"Oligonucleotide": "UAUUGUGUUUUCCAUCCCUCACCCUCAACAGGAUUAAAAUAAAACAUGCUGGGUUUUUUUGUUUUGUUUUGUUUUGUUUUUAAAUUCUUUUAAUUGGAGAGUUUAUUCUG", "RBNS enrichment (R)": 1.53}
{"Oligonucleotide": "UGGCCCAUACUAAGGCUCUUCUGGGCUCCAGCACUCUUAAGUUAUUUUAAGAAUUCUCACUUGGCCUUUAGCACACCCGCCACCCCCAAGUGGGUGUGGAUAAUGCCAUG", "RBNS enrichment (R)": 0.314}
{"Oligonucleotide": "GGCUUAUUGGGGCUUUUAGCAUCUCUAGUAAGUAGCAUACAGCUUUGGCUGGCUUUCUAUCCACAAACCUAAAGCAGAGCUUGAAUGAUAAAUAGCAAGAAUGGAUGUGU", "RBNS enrichment (R)": 1.44}
{"Oligonucleotide": "GAUGAUUGUAAAAUUUGCUCCUCAAAGGAAUCAGGCCAGACUCAAUUUUGGAGGGCAAGACAGGGAGGAGGCCGCUUCAUCCCAGACUCUCUUCUAGGGCUUCCCACCAU", "RBNS enrichment (R)": 0.414}
{"Oligonucleotide": "UGCCCACUCCCUCAGGGCCCACAUGUCCUGCCACUCGCCACUCUGAGCACGAGUUCACCUUCCAGAUGUGGCCAGGGUGUGCCAGCUCCUCUCUCCUGUGCGUUGGAACC", "RBNS enrichment (R)": 0.455}
{"data": "Study 2", "target": "Histone acetyltransferase KAT6A, winged helix 2, GST fusion (KAT6A, Homo sapiens, UniProt Q92794, residues 85-181)", "method": "protein binding microarray", "form": "double-stranded DNA, one strand shown", "matrix": "in vitro", "tested at": "not given", "notes": "8-mer, flanks averaged, mean of 2 arrays, mostly near background", "baseline": "not given", "direction": "higher = stronger binding", "Target sequence (chain)": "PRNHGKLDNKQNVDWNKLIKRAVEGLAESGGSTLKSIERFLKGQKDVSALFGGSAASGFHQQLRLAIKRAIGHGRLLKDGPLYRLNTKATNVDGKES"}
{"Oligonucleotide": "CCTGCAGC", "E-score": 0.0437}
{"Oligonucleotide": "GTTTTCGA", "E-score": 0.141}
{"Oligonucleotide": "ACCATGCT", "E-score": 0.107}
{"Oligonucleotide": "ACCGCTGA", "E-score": -0.0927}
{"Oligonucleotide": "GGGTTGAC", "E-score": -0.0737}
{"Oligonucleotide": "TCGTAAAA", "E-score": -0.0927}
{"Oligonucleotide": "CATACCCA", "E-score": 0.0449}
{"Oligonucleotide": "ACAAACAC", "E-score": 0.0845}
{"Oligonucleotide": "CATGTAGA", "E-score": -0.0143}
{"Oligonucleotide": "CAGGTGCG", "E-score": 0.085}
{"Oligonucleotide": "GTCGATGA", "E-score": -0.0812}
{"Oligonucleotide": "AGTCGCTA", "E-score": -0.0271}
{"Oligonucleotide": "TATAAAGA", "E-score": 0.117}
{"Oligonucleotide": "GATCTGGC", "E-score": 0.166}
{"Oligonucleotide": "ACATTTCG", "E-score": -0.187}
{"Oligonucleotide": "AGGAATTA", "E-score": 0.0143}
{"Oligonucleotide": "GGAAACCA", "E-score": -0.114}
{"Oligonucleotide": "CTGAGACA", "E-score": 0.00137}
{"Oligonucleotide": "CAGGAAGG", "E-score": -0.102}
{"Oligonucleotide": "GCCATGCA", "E-score": 0.0109}
{"Oligonucleotide": "ATTGCCTC", "E-score": 0.127}
{"Oligonucleotide": "TCTCATCA", "E-score": -0.0588}
{"Oligonucleotide": "ACCTGCTC", "E-score": 0.13}
{"Oligonucleotide": "AACTGTAG", "E-score": -0.136}
{"Oligonucleotide": "CGCGTGTC", "E-score": 0.241}
{"data": "Study 3", "target": "PABPC1L2, full length, GST fusion (mouse, UniProt A0ABA7IW68)", "method": "RNAcompete", "form": "RNA", "matrix": "in vitro", "tested at": "20 nM", "notes": "7-mer, probes averaged, single round", "baseline": "mean of 7-mers", "direction": "higher = stronger binding", "Target sequence (chain)": "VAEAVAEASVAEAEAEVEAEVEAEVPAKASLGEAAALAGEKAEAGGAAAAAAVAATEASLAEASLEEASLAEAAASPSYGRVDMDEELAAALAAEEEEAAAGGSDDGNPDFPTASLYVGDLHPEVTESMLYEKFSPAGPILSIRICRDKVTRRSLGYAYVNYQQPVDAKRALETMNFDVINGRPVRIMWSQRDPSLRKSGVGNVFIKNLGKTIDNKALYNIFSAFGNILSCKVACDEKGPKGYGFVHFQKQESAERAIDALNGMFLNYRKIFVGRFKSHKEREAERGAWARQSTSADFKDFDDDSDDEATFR"}
{"Oligonucleotide": "UAUGGGU", "7-mer Z-score": -0.0246}
{"Oligonucleotide": "CUGGCUG", "7-mer Z-score": -0.0863}
{"Oligonucleotide": "UGUUUGA", "7-mer Z-score": -0.496}
{"Oligonucleotide": "CUAAUCA", "7-mer Z-score": -0.0699}
{"Oligonucleotide": "AGUACGC", "7-mer Z-score": -0.235}
{"Oligonucleotide": "UCUAAGU", "7-mer Z-score": -0.36}
{"Oligonucleotide": "GCUGAUU", "7-mer Z-score": -0.0826}
{"Oligonucleotide": "UCCUCAG", "7-mer Z-score": -0.342}
{"Oligonucleotide": "AUUUGUG", "7-mer Z-score": -0.349}
{"Oligonucleotide": "CUAGGUA", "7-mer Z-score": -0.128}
{"Oligonucleotide": "CGUCGCA", "7-mer Z-score": -0.371}
{"Oligonucleotide": "UCCAGAC", "7-mer Z-score": -0.124}
{"Oligonucleotide": "CUCCGCC", "7-mer Z-score": -0.469}
{"Oligonucleotide": "UAGGAGC", "7-mer Z-score": -0.0337}
{"Oligonucleotide": "CCGAGUU", "7-mer Z-score": -0.315}
{"Oligonucleotide": "AAGUAAC", "7-mer Z-score": 0.198}
{"Oligonucleotide": "GGGAAAU", "7-mer Z-score": 0.196}
{"Oligonucleotide": "CGACAAU", "7-mer Z-score": 0.0895}
{"Oligonucleotide": "GUAAUGU", "7-mer Z-score": -0.15}
{"Oligonucleotide": "UAAUACC", "7-mer Z-score": -0.179}
{"Oligonucleotide": "AUUUGGC", "7-mer Z-score": -0.195}
{"Oligonucleotide": "UGACUAC", "7-mer Z-score": -0.0935}
{"Oligonucleotide": "CCUCUUG", "7-mer Z-score": -0.465}
{"Oligonucleotide": "UAGUGAU", "7-mer Z-score": -0.353}
{"data": "Study 4", "target": "Centromere-binding protein 1, full length, His-tagged (CBF1, Saccharomyces cerevisiae, UniProt P17106, residues 1-351)", "method": "competition protein-binding microarray", "form": "double-stranded DNA, one strand shown", "matrix": "in vitro", "tested at": "2 µM", "notes": "whole 60-bp probe, lowest competitor level", "added": "Pho4 competitor, 0.05 µM", "direction": "higher = stronger binding", "shared flanks, not repeated": "… GTCTTGATTCGCTTGACGCTGCTG", "chain of UniProt P17106 (whole entry, looked up)": "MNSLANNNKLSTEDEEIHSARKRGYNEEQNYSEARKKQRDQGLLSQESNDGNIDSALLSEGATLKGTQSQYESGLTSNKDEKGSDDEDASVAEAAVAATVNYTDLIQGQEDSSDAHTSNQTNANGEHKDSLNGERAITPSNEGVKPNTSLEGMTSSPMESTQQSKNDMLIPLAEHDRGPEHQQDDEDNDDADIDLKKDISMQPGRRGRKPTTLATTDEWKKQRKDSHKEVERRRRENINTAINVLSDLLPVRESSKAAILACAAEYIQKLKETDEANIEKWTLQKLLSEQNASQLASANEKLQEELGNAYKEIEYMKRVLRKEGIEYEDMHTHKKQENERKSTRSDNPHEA"}
{"Oligonucleotide": "TTTTTCATCGACCGTCACGTGACGGGCTGAGGTTAA", "fluorescence intensity": "17600 a.u."}
{"Oligonucleotide": "AAAGCGGTAATTTGTCACGCCACTTCACATATCTAT", "fluorescence intensity": "308 a.u."}
{"Oligonucleotide": "TAACAGCCAAGTACCCACGGGTTTCTCTAGCCTCAT", "fluorescence intensity": "73.7 a.u."}
{"Oligonucleotide": "ATAGTTCGTGTACAGGCCGTGATGGTCATCTAATTT", "fluorescence intensity": "108 a.u."}
{"Oligonucleotide": "ATTGTAGAATTTACCCACGTCTGTCCATCAAGAAGA", "fluorescence intensity": "76.8 a.u."}
{"Oligonucleotide": "AGCGACTAAGAAAGTCTTGTGACGGGATGGTGACAA", "fluorescence intensity": "104 a.u."}
{"Oligonucleotide": "AGGGTGGGTTTGATTTTCATCTTGATGCAACCTCTC", "fluorescence intensity": "64.2 a.u."}
{"Oligonucleotide": "GGTATGGCGCCGGATTGGGTTTTTTCATCAAGAATT", "fluorescence intensity": "79.2 a.u."}
{"Oligonucleotide": "CGGGGTTAAGTTTGTCACGGGACTTGCTTGCAGCAG", "fluorescence intensity": "1330 a.u."}
{"Oligonucleotide": "CGTCCTAGTGATTGGTAAGTGGGTGCCATGAGGAAG", "fluorescence intensity": "92.8 a.u."}
{"Oligonucleotide": "GGTTGTAATGTTGTTGATGTGACGGGCCATATTGAA", "fluorescence intensity": "80.2 a.u."}
{"Oligonucleotide": "TCTCGGTTGTTCAAGGTCGTGCTAACCATATGGCAT", "fluorescence intensity": "67 a.u."}
{"Oligonucleotide": "GTCTTGTCTCATTGCATAGTGGGTGTCCCCACTTCA", "fluorescence intensity": "68.2 a.u."}
{"Oligonucleotide": "CTTCTGTAAATTTGCGTAGTGGGTGGACGCGCCCCG", "fluorescence intensity": "79.7 a.u."}
{"Oligonucleotide": "CACAGTGGTAACGGCACCGTGGCCGGGAAACGGTTC", "fluorescence intensity": "55.3 a.u."}
{"Oligonucleotide": "CTTTCCCGATCTTGTCACGACACTTTAGCACATTTG", "fluorescence intensity": "262 a.u."}
{"Oligonucleotide": "TGAAACAATTCGCGTCGCGTGGGACCCGAAAAGGGC", "fluorescence intensity": "103 a.u."}
{"Oligonucleotide": "CATACCCAACCTTGCGAGGTGGGTGAAGATATTTGT", "fluorescence intensity": "50 a.u."}
{"Oligonucleotide": "ATTTGGCGAACTGTGAACGTGCGGAGGGCAGAATCC", "fluorescence intensity": "82.5 a.u."}
